Results collected from several papers.
Each numbered part is a random draw from the data of one study; scales do not carry over between parts.

Study 1
Target: Histone acetyltransferase KAT6A, both winged helices, GST fusion (KAT6A, Homo sapiens, UniProt Q92794, residues 1-181)
Technique: protein binding microarray
Molecule type: double-stranded DNA, one strand shown
Medium: in vitro
Concentration: not given
Setting: 8-mer, flanks averaged, mean of 2 arrays, mostly near background
Baseline: not given
Reading: higher = stronger binding
Target sequence (chain): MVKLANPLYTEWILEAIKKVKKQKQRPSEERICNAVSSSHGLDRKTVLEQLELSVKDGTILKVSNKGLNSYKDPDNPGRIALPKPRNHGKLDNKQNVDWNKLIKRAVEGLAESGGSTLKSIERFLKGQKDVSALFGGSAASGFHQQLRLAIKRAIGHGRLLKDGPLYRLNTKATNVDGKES
Oligonucleotide	E-score
CACGCTAG	0.0322
ATTCAAAT	-0.0752
ACGTAGTA	0.107

Mixed results
ATF1: Cyclic AMP-dependent transcription factor ATF-1 (ATF1, Homo sapiens, UniProt P18846, residues 1-271, full length assumed)
Sequence of UniProt P18846 (whole entry, looked up): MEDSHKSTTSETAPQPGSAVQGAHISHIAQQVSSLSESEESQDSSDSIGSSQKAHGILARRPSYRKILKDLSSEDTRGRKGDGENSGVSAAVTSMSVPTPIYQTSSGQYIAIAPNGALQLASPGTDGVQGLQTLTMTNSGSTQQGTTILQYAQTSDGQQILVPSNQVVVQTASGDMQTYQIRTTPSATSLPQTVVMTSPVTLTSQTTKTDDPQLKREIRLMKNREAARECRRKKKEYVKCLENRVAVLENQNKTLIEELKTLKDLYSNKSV
SALL4 full length isoform B: Sal-like protein 4, full length isoform B (SALL4, Homo sapiens, UniProt Q9UJQ4-2, residues 1-616)
CTCF: Transcriptional repressor CTCF (CTCF, Homo sapiens, UniProt P49711, residues 1-727, full length assumed)
Sequence of UniProt P49711 (whole entry, looked up): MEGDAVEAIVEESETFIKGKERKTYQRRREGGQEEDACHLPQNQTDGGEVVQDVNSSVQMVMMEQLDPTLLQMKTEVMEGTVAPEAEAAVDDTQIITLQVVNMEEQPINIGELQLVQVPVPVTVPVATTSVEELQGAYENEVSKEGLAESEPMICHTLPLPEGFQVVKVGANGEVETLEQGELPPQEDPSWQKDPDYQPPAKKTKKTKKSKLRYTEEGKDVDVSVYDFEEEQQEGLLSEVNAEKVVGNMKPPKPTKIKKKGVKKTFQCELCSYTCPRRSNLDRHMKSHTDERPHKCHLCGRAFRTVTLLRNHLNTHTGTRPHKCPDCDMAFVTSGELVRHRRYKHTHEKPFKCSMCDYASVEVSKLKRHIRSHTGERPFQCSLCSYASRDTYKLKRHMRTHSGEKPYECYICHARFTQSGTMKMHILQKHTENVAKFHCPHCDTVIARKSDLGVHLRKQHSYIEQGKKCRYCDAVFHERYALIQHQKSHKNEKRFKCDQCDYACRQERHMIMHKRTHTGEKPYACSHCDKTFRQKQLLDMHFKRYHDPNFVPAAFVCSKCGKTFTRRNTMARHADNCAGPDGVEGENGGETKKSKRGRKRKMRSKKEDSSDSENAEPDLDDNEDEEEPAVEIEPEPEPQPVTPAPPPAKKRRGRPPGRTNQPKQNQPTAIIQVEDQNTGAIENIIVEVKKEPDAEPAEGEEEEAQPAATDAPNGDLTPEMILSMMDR
Substance	target	assay	system	setting	how to read	quantity	value
GTATGAC	ATF1	protein-binding microarray	double-stranded DNA, one strand shown, in vitro	not given, k-mer, scored over probes, only values ≥0.25	higher = stronger binding	E-score	0.371
PhoQ, residues 284 288 289 292 302 303 SLGVVW	PhoP, residues 12 14 15 18 19 TTLRV (Escherichia coli, UniProt P23836)	Sort-seq, measured: YFP reporter	E. coli	PhoQ-PhoP variant library, with: 10 µM Mg2+	baseline: high Mg2+ state, higher = stronger signaling	fold induction	19.9
ATAGAGGA	SALL4 full length isoform B	universal PBM	double-stranded DNA, one strand shown, in vitro	not given, 8-mer, flanks averaged, mean of replicates	higher = stronger binding	E-score	0.0856
GCGTCAA	ATF1	protein-binding microarray	double-stranded DNA, one strand shown, in vitro	not given, k-mer, scored over probes, only values ≥0.25	higher = stronger binding	E-score	0.312
AAAACATC	SALL4 full length isoform B	universal PBM	double-stranded DNA, one strand shown, in vitro	not given, 8-mer, flanks averaged, mean of replicates	higher = stronger binding	E-score	0.0904
CGCGCACA	CTCF	protein-binding microarray	double-stranded DNA, one strand shown, in vitro	not given, k-mer, scored over probes, only values ≥0.25	higher = stronger binding	E-score	0.295
CCAACTGC	SALL4 full length isoform B	universal PBM	double-stranded DNA, one strand shown, in vitro	not given, 8-mer, flanks averaged, mean of replicates	higher = stronger binding	E-score	-0.245
ATAAAGAA	CTCF	protein-binding microarray	double-stranded DNA, one strand shown, in vitro	not given, k-mer, scored over probes, only values ≥0.25	higher = stronger binding	E-score	0.252

A few entries again (mixed results):
Substance	target	assay	system	setting	how to read	quantity	value
ATAAAGAA	CTCF	protein-binding microarray	double-stranded DNA, one strand shown, in vitro	not given, k-mer, scored over probes, only values ≥0.25	higher = stronger binding	E-score	0.252
